Measured values of several laboratories.
Each numbered part is a random draw from the data of one study; scales do not carry over between parts.

Study 1
Target: Histone acetyltransferase KAT6A, winged helix 1, GST fusion (KAT6A, Homo sapiens, UniProt Q92794, residues 1-85)
Technique: protein binding microarray
Form: double-stranded DNA, one strand shown
Matrix: in vitro
Tested at: not given
Notes: 8-mer, flanks averaged, mean of 2 arrays, mostly near background
Relative to: not given
Reading: higher = stronger binding
Endpoint: E-score
Residues (chain): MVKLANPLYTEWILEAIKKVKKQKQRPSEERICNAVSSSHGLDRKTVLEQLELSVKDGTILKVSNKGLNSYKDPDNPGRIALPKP
Oligonucleotide = CTGTACAA; result = -0.156
Oligonucleotide = GGCATTCA; result = 0.114
Oligonucleotide = GCCATGGA; result = 0.0232
Oligonucleotide = CGAGCCGA; result = 0.0716
Oligonucleotide = CGACTCAG; result = -0.141
Oligonucleotide = CGGCGTAC; result = 0.39
Oligonucleotide = TGATTCAA; result = -0.064
Oligonucleotide = GGACAACC; result = -0.0421
Oligonucleotide = GACACAGA; result = -0.0805
Oligonucleotide = AATGATAT; result = 0.0302
Oligonucleotide = CAAGTGGC; result = -0.0335
Oligonucleotide = AAACGGGT; result = 0.305
Oligonucleotide = CGTTTTAA; result = -0.125
Oligonucleotide = CAGCCGTC; result = 0.251
Oligonucleotide = GCATCATA; result = -0.0487
Oligonucleotide = CCGCTGCA; result = 0.254
Oligonucleotide = CCTACAAC; result = -0.157
Oligonucleotide = GTATGGTA; result = -0.0864
Oligonucleotide = ACCGATCC; result = 0.0644
Oligonucleotide = AGTCAATG; result = -0.173
Oligonucleotide = CCGGACGC; result = 0.314
Oligonucleotide = CCTCCCTC; result = -0.141
Oligonucleotide = CGTAACCC; result = 0.376
Oligonucleotide = GCCGAATA; result = 0.112

Study 2
Target: Ras GTPase-activating protein-binding protein 1, RRM domain (G3BP1, Homo sapiens, UniProt Q13283)
UniProt Q13283, sequence (whole entry, looked up): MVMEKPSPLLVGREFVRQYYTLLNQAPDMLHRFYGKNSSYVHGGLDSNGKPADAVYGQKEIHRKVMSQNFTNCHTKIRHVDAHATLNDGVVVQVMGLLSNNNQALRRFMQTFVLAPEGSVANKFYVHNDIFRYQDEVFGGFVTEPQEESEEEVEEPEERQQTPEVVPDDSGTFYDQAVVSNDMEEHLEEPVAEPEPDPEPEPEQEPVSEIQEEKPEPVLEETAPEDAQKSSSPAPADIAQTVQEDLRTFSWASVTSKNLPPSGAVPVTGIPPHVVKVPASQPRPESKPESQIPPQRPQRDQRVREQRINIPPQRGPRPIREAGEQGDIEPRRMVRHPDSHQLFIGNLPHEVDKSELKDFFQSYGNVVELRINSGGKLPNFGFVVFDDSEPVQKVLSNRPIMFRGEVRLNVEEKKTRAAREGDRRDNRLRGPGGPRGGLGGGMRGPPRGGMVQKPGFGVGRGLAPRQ
Technique: RNA Bind-n-Seq
Form: RNA
Matrix: in vitro
Tested at: 1 µM
Notes: whole 134-nt RNA, ends assumed
With: 150 mM KCl
Relative to: input library
Reading: higher = stronger binding
Endpoint: log2 enrichment
Shared flanks, not repeated: GGGAGUUCUACAGUCCGACGAUC … UGGAAUUCUCGGGUGUCAAGG
Oligonucleotide = GCAGGAAGUAAAAACAAAUGGAAAUGCUUCGGAUAGUGGCAGGGGUGGGGGUUGCUAAGGAAAGGGUGGGAUAGGAGUGGGUAAAGAGUU; result = 1.25
Oligonucleotide = ACCAUGCAGGUGGGCAUCUUUGGGAAGUGGGGCAAGGGGGGGAUAGGGAGGGGGGUAACACAAAGGGAACAGGUGGUCCCAGGUCGUUUC; result = -0.464
Oligonucleotide = UGGGAGGUGGAUUUUGUUUGUUUUUUUAGCUCAUUUCCAGGGGUGGGAAUUUUUUUUUAAUAUGUGUCAUGAAUAAAGUUGUUUUUGAAA; result = 1.01
Oligonucleotide = CACAGACAACACGCACCCACACAGACACAGAGGGAAGGGGUUGGGAUGGGGACAGGGUGCACAGCAGGGCGGGGUAAAACCCCAGCCCCU; result = -0.0584
Oligonucleotide = UCAAGUCCUGUGCUACACAUCGUAUGUACCGAAUCGGAAAAAGGUUUGGAAAGGAAAGUAUUAUGUUACGCCGUUCGGAUCUGCACUUCC; result = -0.175
Oligonucleotide = UCCUGUGCUACACAUCGUAUGUACCGAAUCGGGGUUUUUGGGGAAAAAAAGGGGAGGGGAAAGUAUUAUGUUACGCCGUUCGGAUCUGCA; result = 0.652
Oligonucleotide = CCUCAAGUCCUGUGCUACACAUCGUAUGUACCGAAUCGGUUUUUGGAGGUGGAAAGUAUUAUGUUACGCCGUUCGGAUCUGCACUUCCAG; result = -0.18
Oligonucleotide = CCUGUGCUACACAUCGUAUGUACCGAAUCGGGUUUUUUUGGGAAAAAGGGUUUUUUUGGGAAAGUAUUAUGUUACGCCGUUCGGAUCUGC; result = -0.446
Oligonucleotide = CCAGAGCCAGAGAGCUUGGGCCCUGGGACGCCUGGGUUCCCCGAGCAGGAGGAAGACGAACUUCACCGCACCCUGGGCGUGGAGCGGUUU; result = -0.621
Oligonucleotide = CCUGUGCUACACAUCGUAUGUACCGAAUCGGUUUUUUGGGGUUUUUUGGGUUUUUUGGGGAAAGUAUUAUGUUACGCCGUUCGGAUCUGC; result = -0.357
Oligonucleotide = GUCCUGUGCUACACAUCGUAUGUACCGAAUCGGGGAAAGGGGAGGGGUUUUUUUGGGGAAAGUAUUAUGUUACGCCGUUCGGAUCUGCAC; result = 1.05
Oligonucleotide = AAGUCCUGUGCUACACAUCGUAUGUACCGAAUCGGGAGGGUUUUUGGGAAAAAGGGAAAGUAUUAUGUUACGCCGUUCGGAUCUGCACUU; result = 0.557
Oligonucleotide = UCCUGUGCUACACAUCGUAUGUACCGAAUCGGGGUUUGGGGAAAAAAAGGGGUUUGGGGAAAGUAUUAUGUUACGCCGUUCGGAUCUGCA; result = 0.926
Oligonucleotide = UCAAGUCCUGUGCUACACAUCGUAUGUACCGAAUCGGCCCGGGCCCGGGCCCGGAAAGUAUUAUGUUACGCCGUUCGGAUCUGCACUUCC; result = -0.599

Study 3
Target: RNA binding protein fox-1 homolog 2, RRM domain, GST-SBP tag (RBFOX2, Homo sapiens, UniProt O43251-10, residues 100-194)
Technique: RNA Bind-n-Seq
Form: RNA
Matrix: in vitro
Tested at: 365 nM
Notes: natural RNA segment, single round, ends assumed
Relative to: no-protein control
Reading: higher = stronger binding
Endpoint: RBNS enrichment (R)
Shared flanks, not repeated: GGGAGUUCUACAGUCCGACGAUC … UGGAAUUCUCGGGUGCCAA
Target sequence (chain): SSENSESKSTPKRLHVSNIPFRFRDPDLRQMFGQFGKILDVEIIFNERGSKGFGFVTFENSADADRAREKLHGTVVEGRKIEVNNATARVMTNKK
Oligonucleotide = GUGAAUCCUGGAUUCUGAGUAAGUUCCAGGGUUCUGGCCUUGAAGCCUUGGACUACACACAUUUCAAACAAAACCAAAUGCUGUCGUCGACAAGCCAGCACAGGCGAAGU; result = 0.234
Oligonucleotide = UGGGAAUAAACAGCUGCCCUAGCCCCAGAGGGAUCCCUGCACCCAGGAGGCCUCCUGACACCAGCCAAAAUCCUGACAGCAGGGUCUGCCCUCUUGAGUGUGGGGAGCCC; result = 0.306
Oligonucleotide = GUAAUUUAAGGUCUGUUCACAGCUGUAAUUAUUAUUAUUUUCUACAAUAAAUGGCACCUGCAUACAGAAAGGUUUGGGCUGUUCUCUAUCUGUGGAUGGGACUGGGCUGG; result = 0.406
Oligonucleotide = GAAGCCCUGUGGCCACAUGUAUGUCAGUAAGGGUUGUACAAAAUAAAUUCUAUUUAUCGCUAUUGUACCCGGAGUUAAGAACAGCUUUGUGUAAACCCUGCCUAGACACA; result = 0.56
Oligonucleotide = UUUCAUGGCCCUUUAUCCUAAUAUUCAAGUACUGGAGAGACCCAGAAGUGUUCCAUCCUGAGCGAUUUCUGGACAGCAGUGGAUAUUUUGCCAAGAAGGAAGCUUUGGUU; result = 0.326
Oligonucleotide = AGUUGCUAUGUGUUUCUCAUUGUAAAAGGCUGCCGCUGGGUGGCAGAAGCCAAGAGACCUUAUUAACUAGGCUAUAUUUUUCUUAACUUGAUCUGAAAUCCACAAUUAGA; result = 0.377
Oligonucleotide = GGACAGGGCUGCAGGGCCACGCUGGUGGGAAAGACAAGAGCUGUGAAGGGCCUGGUCCCUCUCUAGAUAGUGGUUUCUUUAGGGUUAACAAAAGGCUUUUGUUCAUACCA; result = 0.6
Oligonucleotide = AGUACACUUUUGUUGAAGUUACAAAACCAGAAUGAGUAUGGCAAGUUCCAAGGGUCCCCAGUGCUUCCCAUUCAGCAUCCCCAGGGAGCCCCCAAAGGUACUGAAAAGUC; result = 0.966
Oligonucleotide = AGAGGGUCAGACGCCUGAGGAACCCUUACAGUAGGAGCCCAGCUCUGAAACCAGUGUUAGGGAAGGGCCUGCCACAGCCUCCCCUGCCAGGGCAGGGCCCCAGGCAUUGC; result = 0.804
Oligonucleotide = AUUACUAUGCUAGGUCCUCACUACUGCCCCCUGCAGGCUGGGGAAAGGGAACUUUUUGUCUACGCUAAGUCCCUGGCUUCCUCUUAAUCGGUUGGUCUUGCUAAUUGAAG; result = 0.373
Oligonucleotide = GCCAAGCCAGGCCUGGCUGUGUCUGUAGUCAUUUGCCCUCUCAUUCGGCCUAUAUCUGACCAUUAGGUCCCUCCCCUUCAGUAGGUCCUGGAGACAUAGGGGCUGCUACC; result = 0.279
Oligonucleotide = AUAAGUCUUAGAUGUUUGAGUGAAGCACUGCUACAAUAGUAAUAGUUUGGCUAGAUCUUAAAGCUGUUUUGGUAAUUAAUGUCUUGUGACAUUUAAUAAUGACUUAGCAA; result = 0.332

Study 4
Target: Prothrombin, mature alpha-thrombin (F2, Homo sapiens, UniProt P00734)
Technique: aptamer microarray, sandwich
Form: DNA with 2'F-ANA
Matrix: in vitro
Tested at: 200 nM
Notes: whole 15-mer aptamer, many near background
With: Cy3 exosite-II aptamer, 400 nM
Reading: higher = stronger binding
Endpoint: mean fluorescence intensity
Oligonucleotide: GGTTGGTGTGGTTGG
Modification = 2'F-ANA at 2 4 14; result = 114 a.u.
Modification = 2'F-ANA at 2 4 6 7 8 9 10 14 15; result = 77.2 a.u.
Modification = 2'F-ANA at 4 8 12 14; result = 140 a.u.
Modification = 2'F-ANA at 1 3 5 7 9 10 14 15; result = 45.1 a.u.
Modification = 2'F-ANA at 4 8 9 10 11 12 13 14; result = 61.4 a.u.
Modification = 2'F-ANA at 4 5 6 11; result = 57.3 a.u.
Modification = 2'F-ANA at 2 3 7 8 9 11 14 15; result = 432 a.u.
Modification = 2'F-ANA at 1 2 4 5 6 7 8 9 10 11 15; result = 53.5 a.u.
Modification = 2'F-ANA at 1 3 6 7 10 11 13 14 15; result = 59.6 a.u.
Modification = 2'F-ANA at 2 6 7 8 9 11 14 15; result = 116 a.u.
Modification = 2'F-ANA at 8 10 11 12 15; result = 170 a.u.
Modification = 2'F-ANA at 1 2 4 5 8 9 10 11 14; result = 48.1 a.u.
Modification = 2'F-ANA at 1 2 3 5 7 8 12 14; result = 47.6 a.u.
Modification = 2'F-ANA at 3 8 9 10 11; result = 585 a.u.
Modification = 2'F-ANA at 1 3 4 6 8 9 11 14; result = 69.3 a.u.
Modification = 2'F-ANA at 4 6 7 9 10 14 15; result = 64.1 a.u.
Modification = 2'F-ANA at 2 3 4 9 10 12 14; result = 166 a.u.
Modification = 2'F-ANA at 1 2 7 9 11 12 14 15; result = 861 a.u.
Modification = 2'F-ANA at 1 3 4 6 7 8 11 14; result = 74 a.u.
Modification = 2'F-ANA at 1 3 7 8 11; result = 335 a.u.
Modification = 2'F-ANA at 1 5 7 8 10 11 12 15; result = 49.2 a.u.
Modification = 2'F-ANA at 2 3 4 5 7 8 9 11 13 15; result = 64.9 a.u.
Modification = 2'F-ANA at 1 3 4 8 9 11 12 13 15; result = 288 a.u.
Modification = 2'F-ANA at 2 3 4 6 7 8 10 11 12 13; result = 237 a.u.
Modification = 2'F-ANA at 1 5 6 7 9 11 13 15; result = 47 a.u.

A few entries again (study 4):
Modification = 2'F-ANA at 4 5 6 11; result = 57.3 a.u.
Modification = 2'F-ANA at 1 5 7 8 10 11 12 15; result = 49.2 a.u.
Modification = 2'F-ANA at 2 6 7 8 9 11 14 15; result = 116 a.u.
Modification = 2'F-ANA at 2 3 4 6 7 8 10 11 12 13; result = 237 a.u.
Modification = 2'F-ANA at 1 5 6 7 9 11 13 15; result = 47 a.u.
Modification = 2'F-ANA at 1 3 7 8 11; result = 335 a.u.
Modification = 2'F-ANA at 2 4 14; result = 114 a.u.
Modification = 2'F-ANA at 1 2 4 5 8 9 10 11 14; result = 48.1 a.u.
Modification = 2'F-ANA at 1 2 4 5 6 7 8 9 10 11 15; result = 53.5 a.u.
